Measurements of several laboratories.
Compare with care: the assays were run in different laboratories. “And” joins repeats or separate records; there may be more than shown.

SMILES = O=C(Nc1cnccc1-c1ccc([18F])cc1)c1ccnc(NC(=O)C2CC2)c1; test system = FVB/NJ mice (both sexes), feces; conditions = intravenous, dose not given, 120 min; measurement = SUV; value = 2.84
SMILES = Cc1ccc(-c2ccc(C3CCCCC3)cc2)cn1; assay = liver microsome stability; test system = rat liver microsomes; conditions = 1 µM; measurement = hepatic clearance; value = 52 mL/min/kg
SMILES = COc1cccc(OC)c1-c1cc(C(=O)NC2(C(=O)O)C3CC4CC(C3)CC2C4)nn1-c1ccc(C(=O)NCCNC(=O)[C@H](CCCCNC(=O)[C@H](CC(C)C)NC(=O)C2OC2C(=O)O)NC(=O)CN2CCN(CC(=O)[O-])CCN(CC(=O)[O-])CCN(CC(=O)[O-])CC2)cc1C(C)C.[177Lu+3] (mixture of isomers); test system = mouse, HT-29 xenograft; conditions = 4 h post injection, biodistribution; scale = reference: tumour over bone uptake; measurement = tumour-to-bone ratio; value = 15.5
SMILES = O=C(CN1CN(c2ccccc2)C2(CCN(C(=O)c3ccc4[nH]ncc4c3)CC2)C1=O)Nc1ccccn1; test system = human liver microsomes; measurement = CLint; value = 66 µL/min/mg protein
SMILES = CC(C)CC(=O)Nc1ccc(C2CCCCC2)cc1; assay = liver microsome stability; test system = dog liver microsomes; conditions = 1 µM; measurement = hepatic clearance; value = 27 mL/min/kg
SMILES = CC[C@H](C)[C@@H]1NC(=O)[C@H](Cc2ccc(O)cc2)NC(=O)CCCSC[C@@H](C(=O)N(CC(=O)N[C@@H](CC(C)C)C(=O)NCC(N)=O)Cc2ccc(F)cc2)NC(=O)[C@H](CC(N)=O)NC(=O)[C@H](CCC(N)=O)NC1=O; test system = human; conditions = intranasal, 300 µg single dose; measurement = drug-related headache; value = 17%
SMILES = CCN(CC)c1ccc2c(c1)O[B-]1(c3ccc(C)cc3)OC(=O)C(c3ccccc3)=N[N+]1=C2 (stereo not drawn); test system = toluene; measurement = fluorescence lifetime; value = 2.4 ns
SMILES = CC(C)OCCOCc1ccc(OCC(O)CN(N=O)C(C)C)cc1 (stereo not drawn); assay = mutation spectrum, duplex sequencing; test system = NMRI mouse, liver; conditions = concentration not given; measurement = C>T mutation fraction; value = increased
SMILES = COc1cccc(OC)c1-c1cc(C(=O)NC2(C(=O)O)C3CC4CC(C3)CC2C4)nn1-c1ccc(C(=O)N(C)CCCN(C)C(=O)[C@H](CCCCNC(=O)[C@H](CC(C)C)NC(=O)C2OC2C(=O)O)NC(=O)CN2CCN(CC(=O)[O-])CCN(CC(=O)[O-])CCN(CC(=O)[O-])CC2)cc1C(C)C.[177Lu+3] (mixture of isomers); test system = mouse, HT-29 xenograft, spleen; conditions = 24 h post injection; measurement = tissue uptake; value = 0.44 %ID/g
SMILES = CN1CCC[C@]1(C)/C=C/S(=O)(=O)NC(=O)Nc1c2c(cc3c1CCC3)CC=C2; test system = human, plasma; conditions = oral, 12.5 mg twice daily of parent drug, day 14, metabolite of dosed drug; measurement = AUC(0-inf); value = 203 µg·h/mL
SMILES = O=C(COCC(F)F)Nc1ccc([C@H]2[C@@H](F)[C@@H](F)C[C@@H](F)[C@H]2F)cc1; assay = liver microsome stability; test system = dog liver microsomes; conditions = 1 µM; measurement = hepatic clearance; value = 13 mL/min/kg
SMILES = COc1ccc(Nc2nc(Nc3ccc(OCCOCC[18F])cc3)ncc2Br)cc1; test system = ICR mice, S180 tumour; conditions = intravenous, 370 kBq, 5 min; scale = reference: tumour over blood; measurement = uptake ratio; value = 0.58
SMILES = C=C(NC(=O)c1csc(-c2nc3c(cc2O)-c2nc(cs2)C(=O)NC(C(C)O)C(=O)NC(=C(C)OC)c2nc(cs2)C(=O)NC2c4nc(cs4)C(=O)NC(COC(=O)c4c5c6c(cccc6n4O)COC(=O)C(OC4CC(C)(O)C(N(C)C)C(C)O4)C2OC5)c2nc-3cs2)n1)C(N)=O (stereo not drawn); test system = Sprague-Dawley rat, plasma; conditions = intravenous, infusion; measurement = half-life; value = 4.7 h
SMILES = Cc1nn(-c2nc3c(F)cc(F)cc3s2)c(O)c1C(c1ccc(C(F)(F)F)cc1)c1c(C)nn(-c2nc3c(F)cc(F)cc3s2)c1O; test system = ICR mouse, plasma; conditions = intravenous, 5 mg/kg; measurement = AUC extrapolated observed; value = 28.1% and 3.3% and 8.78%
SMILES = O=C(Nc1ccc(C2CCCCC2)cc1)C1CC1; assay = hepatocyte stability; test system = cryopreserved rat hepatocytes; conditions = 1 µM; measurement = hepatic clearance; value = 48 mL/min/kg
SMILES = CC(C)(O)Cn1nc(-c2ccccc2)c2c(Cl)c(-c3ccccc3)nnc21; test system = mouse juvenile P6, plasma; conditions = intraperitoneal, 15 mg/kg; measurement = AUC; value = 8.8 µM·h
SMILES = O=C(CCC(F)(F)F)Nc1ccc([C@H]2[C@@H](F)[C@@H](F)C[C@@H](F)[C@H]2F)cc1; assay = liver microsome stability; test system = cynomolgus liver microsomes; conditions = 1 µM; measurement = hepatic clearance; value = 4.9 mL/min/kg
SMILES = C[C@@H](Nc1c(-c2c(F)cc(C#N)cc2F)c(Cl)nc2ncnn12)C(C)(C)C; assay = ELISA; test system = 5XFAD transgenic mice, cortex; conditions = intraperitoneal, 1 mg/kg twice weekly, 4 weeks; measurement = soluble Aβ42 level; value = decreased

For quick reference, copied from above:
SMILES = CC[C@H](C)[C@@H]1NC(=O)[C@H](Cc2ccc(O)cc2)NC(=O)CCCSC[C@@H](C(=O)N(CC(=O)N[C@@H](CC(C)C)C(=O)NCC(N)=O)Cc2ccc(F)cc2)NC(=O)[C@H](CC(N)=O)NC(=O)[C@H](CCC(N)=O)NC1=O; test system = human; conditions = intranasal, 300 µg single dose; measurement = drug-related headache; value = 17%
